Measured values from different studies.
Compare with care: the assays were run in different laboratories. “And” joins repeats or separate records; there may be more than shown. ± gives the spread as reported.
KEAP1 Kelch domain: Kelch-like ECH-associated protein 1, Kelch domain (KEAP1, Homo sapiens, UniProt Q14145)
MT-CYB/UQCRFS1: MT-CYB/UQCRFS1 (Homo sapiens, UniProt P00156+P47985)
T1: RNA aptamer; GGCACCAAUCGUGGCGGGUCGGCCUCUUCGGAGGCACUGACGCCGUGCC

Compound	target	test	test system	setting	scale	quantity	value
CCCCCCCC/C=C\CCCCCCCC(=O)OC(COC(=O)CCCCCCCCCCCCCCC)COP(=O)(O)OCCN (stereo not shown)	Cyclic nucleotide-gated potassium channel (Winmispira thermophila, UniProt G0GA88)	activator, stopped-flow Tl+ flux	DOPC/POX liposomes 3:1	concentration not given, together with: cAMP 1 mM		fast activation amplitude share	~10%
OC[C@H]1OC(O)[C@H](O)[C@@H](O)[C@@H]1O (stereo partly shown)	Hexokinase-3 (HK3, Homo sapiens, UniProt P52790, A499V)	substrate inhibition		mutant A499V, partial substrate inhibition model, together with: ATP 20 mM		kcat	72 ± 4 s⁻¹
CN1CCN(c2cc(-c3ccncc3)c(-c3ccc4ccccc4c3)nn2)CC1	Bombesin receptor subtype-3 (BRS3, Homo sapiens, UniProt P32247)	agonist, FLIPR		12.5 µM		activation	-2.5%
O=c1nc(SCc2ccc(C(F)(F)F)cc2)nc(SCc2csc3ccc(Cl)cc23)[nH]1	DNA topoisomerase 2-alpha (TOP2A, Homo sapiens, UniProt P11388)	DNA relaxation		15.6 µM		mean relaxed DNA	0.3%
C=CC(=O)N1CCC[C@@H](n2nc(-c3ccc(Oc4ccccc4)cc3)c3c(N)ncnc32)C1	Dual specificity tyrosine-phosphorylation-regulated kinase 3 (DYRK3, Homo sapiens, UniProt O43781)			10 µM		remaining activity	41.2%
CC(C)C(=O)Nc1n[nH]c2cc(-c3cccc(NS(=O)(=O)C4CC4)c3)ccc12	Phosphatidylinositol 4-phosphate 5-kinase type-1 gamma (PIP5K1C, Homo sapiens, UniProt O60331)	ADP-Glo		1.11 µM, together with: 10 µM ATP		ADP produced	2.31 µM
O=C(NO)c1ccc(CN2CCCCc3ccccc32)c(F)c1	5-hydroxytryptamine receptor 1E (HTR1E, Homo sapiens, UniProt P28566)	radioligand binding		10 µM		inhibition of radioligand binding	9.45%
O=C(O)c1ccc(Nc2ncc3c(n2)-c2ccc(Cl)cc2C(c2c(F)cccc2F)=NC3)cc1	human ZIPK(h)	kinase activity		1 µM		remaining activity	97%
CC(=O)N[C@@H](C)C(=O)N[C@@H](CC(N)=O)C(=O)NCC(=O)N[C@@H](CC(N)=O)C(=O)N[C@@H](C)C(=O)N[C@@H](CCC(=O)O)C(=O)N[C@@H](CC(N)=O)C(=O)N[C@@H](CCC(=O)O)C(=O)N[C@@H](CCC(=O)O)C(=O)N[C@@H](CC(N)=O)C(=O)NCC(=O)N[C@@H](CCC(=O)O)C(=O)N[C@@H](CCC(N)=O)C(=O)N[C@@H](CCC(=O)O)C(=O)N[C@@H](C)C(=O)N[C@@H](CC(=O)O)C(=O)N[C@@H](CC(N)=O)C(=O)N[C@@H](CCC(=O)O)C(=O)N[C@H](C(=O)N[C@@H](CC(=O)O)C(N)=O)C(C)C	KEAP1 Kelch domain	binding, ITC		pH 7, 298.15 K		TΔS	-7.66 kcal/mol
Cc1cccc(N(O)N=Nc2ccc(S(=O)(=O)Nc3onc(C)c3C)cc2)c1	α-glucosidase, rat intestine	enzyme activity		60 µg/mL, together with: 4-nitrophenyl α-D-glucopyranoside		inhibition	12.5 ± 0.87%
Nc1ncnc2c1ncn2[C@@H]1O[C@H](CSCC[C@H](N)C(=O)O)[C@@H](O)[C@H]1O	GNAS, with Gbeta and Ggamma (Homo sapiens, UniProt P63092)	modulator		100 µM, without A2AR	relative to: Gs alone	GTP hydrolysis	92.3% and 93.1% and 96.7%
CN(C)C(=O)c1cc2cnc(Nc3ccc(N4CCNCC4)cn3)nc2n1C1CCCC1	cGMP-inhibited 3',5'-cyclic phosphodiesterase 3B (PDE3B, Homo sapiens, UniProt Q13370)	HTRF		0.3 to 10 µM		enzyme activity	no effect
Nc1nc2c(ncn2[C@@H]2O[C@H](COP(=O)(O)O)[C@@H](O)[C@H]2O)c(=O)[nH]1	GUK1 (Homo sapiens, UniProt Q16774, T83A)	enzyme activity, NADH-coupled		31.25 µM		reaction rate	7.26 s⁻¹ and 4.77 s⁻¹ and 6.69 s⁻¹
CCOCc1nc(O)c(-c2nnc(Cc3ccc(Cl)cn3)o2)c(O)c1-c1c(OC)cccc1OC	Apelin receptor (APLNR, Homo sapiens, UniProt P35414)	binding				residence time	15.5 ± 2.49 min
O=C(O)[C@@H]1CCCN1c1ncnc2[nH]cnc12 (racemic)	YTH domain-containing family protein 2 (YTHDF2, Homo sapiens, UniProt Q9Y5A9)	binding, affinity selection mass spectrometry			relative to: other proteins in batch	fold enrichment	1.32
O=C(COP(=O)(O)O)[C@@H](O)[C@H](O)[C@H](O)COP(=O)(O)O	Serine/threonine-protein kinase OSR1 (OXSR1, Homo sapiens, UniProt O95747)	thermal proteome profiling	HepG2 cell lysate	concentration not given, 57 over 37 °C	relative to: compound over control	thermal stability ratio	0.667 and 0.5 and 0.609
NC(=O)NOCCCCCCCCCCCC[P+](c1ccccc1)(c1ccccc1)c1ccccc1.O=C([O-])C(F)(F)F	MT-CYB/UQCRFS1	complex III-dependent respiration, Seahorse XF96	HCT-116	2 µM, 24 h	relative to: control	oxygen consumption rate	55.1 ± 14.8%

Compound	target	test	test system	setting	scale	quantity	value
CC1=C(/C=C/C(C)=C/C=C/C(C)=C/C=O)C(C)(C)CCC1	Rhodopsin (RHO, Bos taurus, UniProt P02699, F273W)	retinal entry, Trp FRET	lipid bicelles	28 °C, F273W mutant	relative to: wild-type rhodopsin	relative kon	2.6 ± 0.24
NC(=O)NOCCCCCCCCCCCCCCCC[P+](c1ccccc1)(c1ccccc1)c1ccccc1.O=C([O-])C(F)(F)F	MT-CYB/UQCRFS1	complex III-dependent respiration, Seahorse XF96	HCT-116	0.03 µM, 24 h	relative to: control	oxygen consumption rate	94%
Oc1ccc(/C=C/c2cc(O)cc(O)c2)cc1	O-methyltransferase (Sorghum bicolor, UniProt A0A1B6PFV1)	ITC		together with: ADE+		-TΔS	4.7 kcal/mol
Cc1cccc(N(O)N=Nc2ccc(S(=O)(=O)Nc3nccs3)cc2)c1	α-glucosidase, rat intestine	enzyme activity		120 µg/mL, together with: 4-nitrophenyl α-D-glucopyranoside		inhibition	17.5 ± 2.16%
CC[C@@H](C)[C@@H](NC(=O)[C@@H](Cc1ccc(O)cc1)NC(=O)[C@H]1CCCN1C(=O)[C@@H](CCCNC(=N)N)NC(=O)[C@H](N)Cc1c[nH]cn1)C(=O)N[C@H](C)C(=O)N[C@H](Cc1c[nH]cn1)C(=O)N[C@H](CCCNC(=N)N)C(=O)N[C@@H](C(=O)N[C@H](Cc1ccc(O)cc1)C(=O)N[C@H](CO)C(=O)N[C@H](Cc1ccccc1)C(N)=O)C(C)C	Transferrin receptor protein 1 (Tfrc, Mus musculus, UniProt Q62351)	flow cytometry	DC2.4	48 h, pH 6, replicate 2, unit not given	relative to: 0 h	surface TFRC expression	0.907
CCCN(O)N=Nc1ccc(S(=O)(=O)Nc2cc(C)on2)cc1	α-glucosidase, rat intestine	enzyme activity		60 µg/mL, together with: 4-nitrophenyl α-D-glucopyranoside		inhibition	22.5 ± 0.16%
CCN(CCO)CCCC(C)Nc1ccnc2cc(Cl)ccc12 (stereo not shown)	Protein transport protein Sec61 subunit alpha isoform 1 (Homo sapiens, UniProt P61619)	Sec61-dependent translocation, inhibitor, measured: CD4 signal peptide-FLuc reporter	HEK293	concentration not given	relative to: mock	FLuc/RLuc ratio	0.97
NCCCC(=O)O	Sodium- and chloride-dependent taurine transporter (SLC6A6, Homo sapiens, UniProt P31641, L306A)	binding, microscale thermophoresis		488 nM, room temperature, together with: 50 nM labelled protein	higher = more binding	normalised MST signal	-0.0824
C=CC(=O)Nc1ccccc1CN(C(=O)Nc1cccc(C(F)(F)F)c1)C1CCN(C(C)CCC)CC1 (stereo not shown)	DCN1-like protein 1 (Homo sapiens, UniProt Q96GG9)	covalent binder, LC-TOF mass spectrometry		60 µM, overnight, 4 °C, together with: DCN1-like protein 1 30 µM		covalent adduct formation	100%
C=CC(=O)N1CCC(COCC(=O)N2CCN(c3nc(-c4cnc(N)nc4C(F)F)nc(N4CCOC[C@@H]4C)n3)CC2)CC1	Muscle, skeletal receptor tyrosine-protein kinase (MUSK, Homo sapiens, UniProt O15146)	KINOMEscan		1 µM		remaining binding	100%
NC(=O)NOCCCCCCCCCCCCCC[P+](c1ccccc1)(c1ccccc1)c1ccccc1.O=C([O-])C(F)(F)F	MT-CYB/UQCRFS1	complex III-dependent respiration, Seahorse XF96	HCT-116	20 µM, 24 h	relative to: control	oxygen consumption rate	1.63 ± 4.97%
O=C1Nc2ccc(Br)cc2C1=O	Dehaloperoxidase B, ferric (Amphitrite ornata, UniProt Q9NAV7)	product, HPLC		together with: 5-bromoindole 500 µM, H2O2 500 µM		share of total products	2.8%
CN(CCO)c1ccc(/C=C(\C#N)c2ccc(C#N)cc2)cc1	T1, RNA aptamer	fluorescence titration, Hill fit		apparent		Kd	205 nM
CC[C@H](C)[C@H](NC(C)=O)C(=O)N[C@@H](CC(N)=O)C(=O)N[C@H](C(=O)N[C@@H](CCCNC(=N)N)C(=O)N[C@@H](CCCCN)C(=O)N[C@@H](CCCNC(=N)N)C(=O)N[C@@H](CC(N)=O)C(=O)N[C@H](C(=O)N[C@@H](CCC(=O)O)C(=O)N[C@@H](CO)C(=O)NCC(=O)N[C@@H](CCC(=O)O)C(=O)N[C@@H](CCC(=O)O)C(=O)N[C@@H](CCC(=O)O)C(=O)N[C@@H](CC(C)C)C(=O)N[C@@H](C)C(=O)N[C@@H](CO)C(=O)N[C@@H](CCCCN)C(=O)N[C@@H](CC(C)C)C(=O)N[C@@H](CC(=O)O)C(N)=O)C(C)C)C(C)C	KEAP1 Kelch domain	binding, ITC		pH 7, 298.15 K		ΔG	-9.2 ± 0.03 kcal/mol
CSc1ccc(C(=O)/C=C/c2cc(C)c(OC(C)(C)C(=O)O)c(C)c2)cc1	Peroxisome proliferator-activated receptor alpha (Rattus norvegicus, UniProt P37230)	receptor activation, agonist		species rat	relative to: internal control agonist	Emax	87%
Cn1c(SCc2ccccc2Cl)nc(=O)c2c1NC(=O)CC2c1cccc(O)c1 (stereo not shown)	Protein lin-28 homolog A (Mus musculus, UniProt Q8K3Y3)					Hill slope	-1.8
O=P(O)(O)O[C@H]1O[C@H](CO)[C@@H](O)[C@H](O)[C@@H]1O	AncA-Alt ancestral enzyme	substrate, phosphomolybdate phosphate release		pH 6.5, 27 °C, reverse phosphorolysis, apparent Km, together with: 25 mM mannose acceptor		Km	13.2 ± 1.31 mM
